Measurements of several laboratories.
Protocols differ between the studies behind these lines. Values joined by “and” are separate records of one study, mostly repeats; a detail may differ. ± gives the spread as reported.
sdiA: Regulatory protein SdiA (sdiA, Escherichia coli, UniProt P07026)
Sequence of UniProt P07026 (whole entry, looked up): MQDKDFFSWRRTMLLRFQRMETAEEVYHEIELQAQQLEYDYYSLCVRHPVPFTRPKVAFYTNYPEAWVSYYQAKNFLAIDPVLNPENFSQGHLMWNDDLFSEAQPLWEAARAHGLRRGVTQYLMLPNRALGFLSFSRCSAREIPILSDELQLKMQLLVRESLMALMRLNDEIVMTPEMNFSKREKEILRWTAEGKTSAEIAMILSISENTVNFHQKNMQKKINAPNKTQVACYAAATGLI
lasR: Transcriptional activator protein LasR (lasR, Pseudomonas aeruginosa, UniProt P25084)
Sequence of UniProt P25084 (whole entry, looked up): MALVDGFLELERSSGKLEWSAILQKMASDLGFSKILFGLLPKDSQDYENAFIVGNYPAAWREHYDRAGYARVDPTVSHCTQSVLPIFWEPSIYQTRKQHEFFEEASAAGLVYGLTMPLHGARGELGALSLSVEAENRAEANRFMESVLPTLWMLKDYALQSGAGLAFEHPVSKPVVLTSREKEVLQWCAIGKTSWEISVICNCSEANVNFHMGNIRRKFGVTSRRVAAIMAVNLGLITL
Oprm1: Mu-type opioid receptor (Oprm1, Rattus norvegicus, UniProt P33535)
Sequence of UniProt P33535 (whole entry, looked up): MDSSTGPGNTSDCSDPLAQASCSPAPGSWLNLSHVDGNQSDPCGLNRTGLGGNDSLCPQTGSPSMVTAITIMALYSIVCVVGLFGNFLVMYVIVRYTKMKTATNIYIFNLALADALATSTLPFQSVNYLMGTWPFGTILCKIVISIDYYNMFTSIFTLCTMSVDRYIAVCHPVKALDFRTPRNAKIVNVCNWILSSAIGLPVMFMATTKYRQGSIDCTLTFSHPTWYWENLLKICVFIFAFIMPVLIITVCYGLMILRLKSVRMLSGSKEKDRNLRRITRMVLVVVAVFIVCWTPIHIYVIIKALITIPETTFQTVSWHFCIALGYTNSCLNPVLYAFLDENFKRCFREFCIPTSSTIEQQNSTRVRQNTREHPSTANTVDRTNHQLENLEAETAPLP
Uncharacterized hydrolase SAUSA300_2518: Uncharacterized hydrolase SAUSA300_2518 (Staphylococcus aureus, UniProt Q2FDS6)
Sequence of UniProt Q2FDS6 (whole entry, looked up): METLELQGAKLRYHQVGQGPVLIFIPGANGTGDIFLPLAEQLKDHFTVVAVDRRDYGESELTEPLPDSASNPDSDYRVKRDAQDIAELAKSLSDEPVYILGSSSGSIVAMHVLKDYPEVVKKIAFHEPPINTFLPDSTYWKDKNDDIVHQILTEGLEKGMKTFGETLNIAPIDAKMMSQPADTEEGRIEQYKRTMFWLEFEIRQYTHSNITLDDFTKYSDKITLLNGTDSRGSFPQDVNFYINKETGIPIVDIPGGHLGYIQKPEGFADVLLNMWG
KEAP1: Kelch-like ECH-associated protein 1 (KEAP1, Homo sapiens, UniProt Q14145)
Sequence of UniProt Q14145 (whole entry, looked up): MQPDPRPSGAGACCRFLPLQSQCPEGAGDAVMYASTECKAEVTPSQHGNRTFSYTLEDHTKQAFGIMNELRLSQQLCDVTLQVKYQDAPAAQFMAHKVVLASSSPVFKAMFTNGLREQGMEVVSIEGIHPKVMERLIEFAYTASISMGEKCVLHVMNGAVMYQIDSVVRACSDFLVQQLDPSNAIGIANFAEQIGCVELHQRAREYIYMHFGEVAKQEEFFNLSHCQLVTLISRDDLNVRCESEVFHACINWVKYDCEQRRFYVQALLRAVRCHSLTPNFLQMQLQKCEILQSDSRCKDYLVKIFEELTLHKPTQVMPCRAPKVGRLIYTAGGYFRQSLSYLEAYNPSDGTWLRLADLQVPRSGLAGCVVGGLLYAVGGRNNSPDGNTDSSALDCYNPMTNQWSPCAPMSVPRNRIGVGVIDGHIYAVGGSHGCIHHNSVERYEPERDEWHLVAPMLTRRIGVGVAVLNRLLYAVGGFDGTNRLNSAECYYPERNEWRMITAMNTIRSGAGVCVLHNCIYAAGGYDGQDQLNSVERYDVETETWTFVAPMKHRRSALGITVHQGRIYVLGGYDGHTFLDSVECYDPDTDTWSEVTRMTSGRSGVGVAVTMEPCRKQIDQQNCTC
Sequence of UniProt Q007T0 (whole entry, looked up): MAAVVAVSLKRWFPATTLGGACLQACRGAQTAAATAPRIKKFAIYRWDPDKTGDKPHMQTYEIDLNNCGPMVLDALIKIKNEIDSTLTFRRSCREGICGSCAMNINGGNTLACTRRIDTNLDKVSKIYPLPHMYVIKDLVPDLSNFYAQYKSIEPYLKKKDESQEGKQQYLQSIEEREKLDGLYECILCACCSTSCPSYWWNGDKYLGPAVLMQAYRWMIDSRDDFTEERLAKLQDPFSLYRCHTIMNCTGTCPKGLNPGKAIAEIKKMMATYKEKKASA
Sequence of UniProt A5GZW8 (whole entry, looked up): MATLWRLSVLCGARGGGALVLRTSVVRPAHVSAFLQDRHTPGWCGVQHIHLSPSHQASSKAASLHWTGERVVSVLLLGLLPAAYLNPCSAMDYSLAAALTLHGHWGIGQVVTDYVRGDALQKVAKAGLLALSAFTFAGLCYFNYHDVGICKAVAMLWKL
Sequence of UniProt Q9ET22 (whole entry, looked up): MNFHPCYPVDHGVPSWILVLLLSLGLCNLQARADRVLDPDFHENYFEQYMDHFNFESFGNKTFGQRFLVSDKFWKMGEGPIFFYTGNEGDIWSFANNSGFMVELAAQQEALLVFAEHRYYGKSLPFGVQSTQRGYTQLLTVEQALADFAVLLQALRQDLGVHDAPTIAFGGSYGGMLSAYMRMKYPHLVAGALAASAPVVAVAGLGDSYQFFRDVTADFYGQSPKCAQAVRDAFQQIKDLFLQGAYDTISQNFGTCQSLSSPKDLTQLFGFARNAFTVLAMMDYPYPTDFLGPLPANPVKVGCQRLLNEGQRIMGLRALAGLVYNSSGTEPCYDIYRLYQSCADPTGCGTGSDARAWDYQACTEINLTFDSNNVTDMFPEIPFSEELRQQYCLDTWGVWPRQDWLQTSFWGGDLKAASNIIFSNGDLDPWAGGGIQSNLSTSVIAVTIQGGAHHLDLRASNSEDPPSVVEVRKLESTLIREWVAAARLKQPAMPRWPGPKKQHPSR
Sequence of UniProt D0VWV4 (whole entry, looked up): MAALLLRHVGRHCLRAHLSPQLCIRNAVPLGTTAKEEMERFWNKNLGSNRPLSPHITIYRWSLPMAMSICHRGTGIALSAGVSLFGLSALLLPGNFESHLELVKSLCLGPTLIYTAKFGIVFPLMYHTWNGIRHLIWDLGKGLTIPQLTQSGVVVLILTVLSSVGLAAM
Sequence of UniProt Q9UM07 (whole entry, looked up): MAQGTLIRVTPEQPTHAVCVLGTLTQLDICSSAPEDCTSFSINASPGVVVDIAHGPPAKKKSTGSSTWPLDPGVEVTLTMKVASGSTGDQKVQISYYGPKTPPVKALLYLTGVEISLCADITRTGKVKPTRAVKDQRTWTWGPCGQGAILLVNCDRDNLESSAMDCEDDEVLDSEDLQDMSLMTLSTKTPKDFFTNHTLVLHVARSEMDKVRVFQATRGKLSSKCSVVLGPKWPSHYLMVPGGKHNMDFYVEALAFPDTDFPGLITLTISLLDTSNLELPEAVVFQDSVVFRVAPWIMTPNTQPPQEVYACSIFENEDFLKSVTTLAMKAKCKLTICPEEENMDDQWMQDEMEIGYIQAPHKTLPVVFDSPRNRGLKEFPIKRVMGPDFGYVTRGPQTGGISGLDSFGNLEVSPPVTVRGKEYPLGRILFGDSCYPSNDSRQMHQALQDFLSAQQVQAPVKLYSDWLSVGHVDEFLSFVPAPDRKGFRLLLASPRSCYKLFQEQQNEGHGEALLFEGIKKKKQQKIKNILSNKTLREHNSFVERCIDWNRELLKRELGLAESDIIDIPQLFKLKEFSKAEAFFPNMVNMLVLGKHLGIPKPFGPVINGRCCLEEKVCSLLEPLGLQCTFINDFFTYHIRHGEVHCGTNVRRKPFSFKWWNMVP
Sequence of UniProt P00772 (whole entry, looked up): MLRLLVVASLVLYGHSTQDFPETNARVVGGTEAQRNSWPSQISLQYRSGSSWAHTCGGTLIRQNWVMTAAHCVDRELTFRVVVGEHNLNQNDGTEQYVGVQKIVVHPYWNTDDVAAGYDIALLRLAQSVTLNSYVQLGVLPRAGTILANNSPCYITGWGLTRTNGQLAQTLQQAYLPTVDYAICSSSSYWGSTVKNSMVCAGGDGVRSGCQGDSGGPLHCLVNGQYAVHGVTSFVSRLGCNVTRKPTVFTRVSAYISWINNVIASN
Sequence of UniProt Q96SW2 (whole entry, looked up): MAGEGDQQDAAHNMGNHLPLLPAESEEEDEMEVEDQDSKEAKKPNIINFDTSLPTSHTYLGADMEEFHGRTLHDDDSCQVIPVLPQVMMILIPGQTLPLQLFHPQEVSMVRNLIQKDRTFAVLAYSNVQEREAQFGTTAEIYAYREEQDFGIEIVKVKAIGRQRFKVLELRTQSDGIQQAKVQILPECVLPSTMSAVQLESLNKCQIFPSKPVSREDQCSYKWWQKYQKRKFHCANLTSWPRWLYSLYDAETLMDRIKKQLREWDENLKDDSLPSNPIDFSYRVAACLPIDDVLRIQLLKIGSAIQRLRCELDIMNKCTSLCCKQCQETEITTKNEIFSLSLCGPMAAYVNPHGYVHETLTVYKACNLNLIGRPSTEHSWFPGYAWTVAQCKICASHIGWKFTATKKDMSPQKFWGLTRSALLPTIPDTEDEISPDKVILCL
Sequence of UniProt P0A988 (whole entry, unmodified, looked up): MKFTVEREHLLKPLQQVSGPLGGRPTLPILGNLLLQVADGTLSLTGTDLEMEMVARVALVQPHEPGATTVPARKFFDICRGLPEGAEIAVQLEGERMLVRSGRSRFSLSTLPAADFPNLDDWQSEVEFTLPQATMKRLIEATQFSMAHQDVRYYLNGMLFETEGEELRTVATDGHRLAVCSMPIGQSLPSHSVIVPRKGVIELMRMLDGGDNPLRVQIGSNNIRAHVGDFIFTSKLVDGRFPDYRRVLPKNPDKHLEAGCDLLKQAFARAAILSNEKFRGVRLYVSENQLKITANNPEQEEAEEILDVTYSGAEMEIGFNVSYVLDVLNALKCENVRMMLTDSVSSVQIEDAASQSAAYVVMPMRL
Sequence of UniProt P30048 (whole entry, looked up): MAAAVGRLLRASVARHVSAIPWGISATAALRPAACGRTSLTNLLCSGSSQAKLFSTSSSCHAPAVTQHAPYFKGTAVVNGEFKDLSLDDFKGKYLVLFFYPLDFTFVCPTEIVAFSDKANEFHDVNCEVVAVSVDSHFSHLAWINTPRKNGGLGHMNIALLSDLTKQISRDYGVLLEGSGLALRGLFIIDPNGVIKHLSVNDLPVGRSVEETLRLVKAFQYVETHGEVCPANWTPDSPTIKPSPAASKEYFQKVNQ

`CC(C)[C@H]1NC(=O)C[C@H]2/C=C/CCSSC[C@@H](NC1=O)C(=O)N[C@H](Cc1cccc3ccccc13)C(=O)NCC(=O)O2` gave an inhibition of 2.1% (Platelet-derived growth factor receptor alpha (PDGFRA, Homo sapiens, UniProt P16234, D842V); enzyme activity, inhibitor; 10 µM).
The Emax of `O=C(Cc1ccccc1F)N[C@H]1CCOC1=O` is reported as 104% (sdiA).
`CC(C)CC(O)(CC(C)C)c1cn(C(=O)N2CCCC2)nn1`: “SILAC activity ratio” 1.38 and 1.22 and 1.18 and 1.12 and 1 (Dipeptidyl peptidase 2 (Dpp7, Mus musculus, UniProt Q9ET22); probe labelling, inhibitor, competitive ABPP-SILAC, refers to: Dpp7; mouse T cells; concentration not given, 4 h, single peptide; reference: treated over DMSO cells, lower = stronger inhibition).
Under “log2 fold change”, `Cc1ccc(NC(=O)CCc2cccc(NC3=CC(=O)N(C4CCC(=O)NC4=O)C3=O)c2)cc1Cl` (stereo not shown) is recorded as -1.84 (CRBN/Zinc finger protein Aiolos (Homo sapiens, UniProt Q96SW2+Q9UKT9); degrader, quantitative proteomics, refers to: protein abundance; Jurkat; 1 µM, 4 h; reference: DMSO).
For `CCCCCCCCCC(=O)CC(=O)Nc1cccc(OC)c1`, the agonist activity was 1% (lasR; reporter gene, agonist; Escherichia coli JLD271; 10 µM, pSC11 and pJN105L plasmids; reference: OdDHL at same concentration).
For `C[C@@H](O)[C@@H]1CN([C@@H](CC2CCCCC2)CN2CCC[C@H]2CN2CCNC[C@@H]2CO)CCN1CCc1ccc(Cl)c(Cl)c1`, the remaining binding was 104 ± 9.57% (Oprm1; radioligand binding; rat brain membranes; 500 nM, pH 7.5, 25 °C, with: 0.87 nM [3H]DAMGO).
`O=C(Cc1cccc(I)c1)N[C@H]1CCOC1=O` has an Emax of 127% (sdiA).
With `N[C@H](C(=O)N1CCCC1)C1CCN(c2nccc3c(-c4ncc(Cl)cc4Cl)cccc23)CC1` the kcat was 0.236 s⁻¹ and 0.224 s⁻¹ (Protein-arginine deiminase type-4 (PADI4, Homo sapiens, UniProt Q9UM07); enzyme activity; 0.0983 µM, with: Ca2+ 0.25 mM).
For `O=S(=O)(F)c1cccc2c1OCC2`, the remaining activity was 109% and 111% (Uncharacterized hydrolase SAUSA300_2518; enzyme activity, inhibitor, fluorogenic substrate; 0.1 µM).
`CC=C1CN2CCc3c([nH]c4ccccc34)C2CC1C(=COC)C(=O)OC` (stereo not shown) gave an SPR response of about 50 RU (Thioredoxin-dependent peroxide reductase, mitochondrial (PRDX3, Homo sapiens, UniProt P30048); binding; 20 µM).
For `CCCCCCCCCC(=O)CC(=O)Nc1ccccc1`, the agonist activity was 8% (lasR; reporter gene, agonist; Pseudomonas aeruginosa PAO-JP2; 100 µM, plasI-LVAgfp reporter; reference: OdDHL at same concentration).
The remaining binding of `Oc1ccc(C[C@@H]2CN([C@@H](CC3CCCCC3)CN3CCC[C@H]3CN3CCNC[C@@H]3Cc3ccc4ccccc4c3)CCN2CCC23CC4CC(CC(C4)C2)C3)cc1` is reported as 109 ± 4.67% (Oprm1; radioligand binding; rat brain membranes; 500 nM, pH 7.5, 25 °C, with: 0.87 nM [3H]DAMGO).
With `CCCCCCCCCNC(=O)CC(=O)c1ccccc1` the agonist activity was 3% (lasR; reporter gene, agonist; Pseudomonas aeruginosa PAO-JP2; 100 µM, plasI-LVAgfp reporter; reference: OdDHL at same concentration).
`CN(C)[C@H]1C[C@@]23CC[C@@]4(O2)C(=CC[C@]2(C)[C@@H](c5ccc6ccncc6c5)CC[C@H]24)C=C3[C@@H](O)[C@@H]1O` gave an inhibition of 7.9% (Mitogen-activated protein kinase 9 (MAPK9, Homo sapiens, UniProt P45984); ATP probe labelling, inhibitor, KiNativ profiling; 1 µM).
For `O=NC1=C(c2cccc([N+](=O)[O-])c2)Nc2ccccc2S1`, the ΔTm was 4.7 °C (Tumor susceptibility gene 101 protein (Homo sapiens, UniProt Q99816); thermal stability; 800 µM).
With `Cc1cc(Nc2nc(C[C@@]3(C(=O)O)CCN(Cc4cccc(Cl)c4F)[C@H](C)C3)cc(C)c2F)[nH]n1` the activation was 0.08% (Vasopressin V1a receptor (AVPR1A, Homo sapiens, UniProt P37288); agonist; 10 µM).
`CON(C(=O)c1cn(C)nc1C(F)F)C(C)Cc1c(Cl)cc(Cl)cc1Cl` (stereo not shown) gave a reaction velocity of 0.0108 µM/s and 0.0107 µM/s (SDHD/SDHC/SDHB (Sus scrofa, UniProt A5GZW8+D0VWV4+Q007T0); enzyme activity, inhibitor, DCIP reduction; pig; 0.6 µM, with: DCIP 120 µM).
`CCCC[C@H]1CNCCN1C[C@@H]1CCCN1C[C@@H](Cc1ccc2ccccc2c1)N1CCN(CCC23CC4CC(CC(C4)C2)C3)[C@H]([C@H](C)CC)C1` has a remaining binding of 106 ± 4.4% (Oprm1; radioligand binding; rat brain membranes; 500 nM, pH 7.5, 25 °C, with: 0.87 nM [3H]DAMGO).
For `CC(C)Oc1ccc(B(O)O)c(F)n1`, the selectivity ratio was 637 (Chymotrypsin-like elastase family member 1 (CELA1, Sus scrofa, UniProt P00772); pNA substrate hydrolysis; reference: Ki protease over Ki AmpC).
The Emax of `CN(C)[C@H](CNC(=O)/C=C/c1cccc2ccccc12)Cc1ccc(O)cc1` is reported as 80 ± 10% (Mu-type opioid receptor, with Gi2 (OPRM1, Homo sapiens, UniProt P35372); receptor activation, agonist).
`CC(C)C[C@@H]1NC(=O)[C@H](C(C)C)NC(=O)[C@H](CCC(=O)O)NC(=O)CNC(=O)[C@H]([C@@H](C)O)NC(=O)[C@H](CCC(=O)O)NC(=O)[C@H](CCC(=O)O)NC(=O)[C@H](CC(=O)O)NC(=O)[C@H](C(C)C)NC(=O)[C@H]([C@@H](C)O)NC(=O)CNC(=O)[C@H](CC(=O)O)NC(=O)[C@@H]2CCCN2C1=O` gave a fluorescence polarization of 0.871 a.u. and 1.08 a.u. (KEAP1; Keap1-Nrf2 binding, inhibitor, competitive FP; 0.0244 µM, 30 min, with: Nrf2 peptide probe; lower = stronger inhibition).
The remaining activity of `O=C(Nc1ccncc1)c1ccccc1OS(=O)(=O)F` is reported as 91% and 84.9% and 92.2% (Uncharacterized hydrolase SAUSA300_2518; enzyme activity, inhibitor, fluorogenic substrate; 0.05 µM).
`O=C1NC(=O)c2c1c1cc(F)c[n+]3c1c1c2c2cc(O)ccc2[n]1[Ru-4]312([N]=C=S)[S+]3CC[S+]1CC[S+]2CC3` (stereo not shown) has a remaining activity of 29% (Insulin receptor-related protein (INSRR, Homo sapiens, UniProt P14616); enzyme activity; 100 nM, human enzyme, with: 10 µM ATP; reference: untreated).
For `CC(C)[C@@H]1NC(=O)[C@H](CC(N)=O)NC(=O)CNC(=O)[C@H](CC(N)=O)NC(=O)[C@H](C)NC(=O)[C@H](CC(=O)O)NC(=O)[C@H]([C@@H](C)O)NC(=O)[C@H](CCC(=O)O)NC(=O)CNC(=O)[C@H]([C@@H](C)O)NC(=O)[C@H](CCC(=O)O)NC(=O)[C@H](CCC(=O)O)NC(=O)[C@H](CC(=O)O)NC1=O`, the fluorescence polarization was 0.0723 a.u. and 0.157 a.u. (KEAP1; Keap1-Nrf2 binding, inhibitor, competitive FP; 25 µM, 30 min, with: Nrf2 peptide probe; lower = stronger inhibition).
`CCNC(=S)NN=Cc1c2ccccc2cc2ccccc12.Cc1ccc(C(C)C)cc1.[Cl-].[Cl-].[Ru+2]` gave a binding constant of 6.31 ± 0.23 10⁴ M⁻¹ (Albumin (ALB, Homo sapiens, UniProt P02768); modified Stern-Volmer; 296 K).
`COc1ccccc1-c1n[nH]c2nc(N[C@H]3CC[C@H](NS(=O)(=O)CC(C)C)CC3)ncc12` has a remaining binding of 46% (cyclin 9 (Leishmania donovani, UniProt A0A2D1QVA3); competitor, bead pull-down competition; Leishmania donovani extract; 0.0032 µM; reference: vehicle).
`CCCCCCCCCC(=O)NC1CCCC1`: antagonist activity “inactive” (lasR; reporter gene, antagonist; Escherichia coli, JLD271 with LasR plasmid; concentration not given, with: OdDHL 2 nM).
For `CS(C)(=O)=Nc1ccc(-c2ccc(-c3nc4cc(O[C@@H]5CO[C@H]6[C@@H]5OC[C@H]6O)[nH]c4cc3F)cc2)cc1`, the inhibition was 14% (Serine/threonine-protein kinase tousled-like 2 (TLK2, Homo sapiens, UniProt Q86UE8); enzyme activity, inhibitor; 10 µM).
`C[C@H](NCc1ccc(-c2ccc(C(F)(F)F)cc2)cc1)C(N)=O` has an inhibition of 2% (AMPA receptor, rat; binding, radioligand binding; biochemical; 1 µM, with: [3H]AMPA 5.0 nM).
With `CCn1nc(Cl)c2c1-c1cnc(N)c(c1)O[C@H](C)c1cc(F)ccc1-c1nn(C)cc1C2` the selectivity ratio was 180 fold (Ephrin type-A receptor 4 (EPHA4, Homo sapiens, UniProt P54764); kinase activity, inhibitor; reference: IC50 EPHA4 over IC50 ALK).
`C=CC(=O)NC[C@H](NC(=O)[C@H](CC1CCCCC1)NC(=O)[C@H](CCC(N)=O)NC(C)=O)C(=O)N[C@@H](CC(C)C)C(=O)N[C@@H](Cc1ccccc1)C(=O)O` has a ΔH of -11.5 kcal/mol (Beta sliding clamp (Escherichia coli, UniProt P0A988); binding, isothermal titration calorimetry; pH 7.4, 22 °C).

For quick reference, copied from above:
For `CC(C)[C@@H]1NC(=O)[C@H](CC(N)=O)NC(=O)CNC(=O)[C@H](CC(N)=O)NC(=O)[C@H](C)NC(=O)[C@H](CC(=O)O)NC(=O)[C@H]([C@@H](C)O)NC(=O)[C@H](CCC(=O)O)NC(=O)CNC(=O)[C@H]([C@@H](C)O)NC(=O)[C@H](CCC(=O)O)NC(=O)[C@H](CCC(=O)O)NC(=O)[C@H](CC(=O)O)NC1=O`, the fluorescence polarization was 0.0723 a.u. and 0.157 a.u. (KEAP1; Keap1-Nrf2 binding, inhibitor, competitive FP; 25 µM, 30 min, with: Nrf2 peptide probe; lower = stronger inhibition).
For `CCCCCCCCCC(=O)CC(=O)Nc1ccccc1`, the agonist activity was 8% (lasR; reporter gene, agonist; Pseudomonas aeruginosa PAO-JP2; 100 µM, plasI-LVAgfp reporter; reference: OdDHL at same concentration).
`CC(C)[C@H]1NC(=O)C[C@H]2/C=C/CCSSC[C@@H](NC1=O)C(=O)N[C@H](Cc1cccc3ccccc13)C(=O)NCC(=O)O2` gave an inhibition of 2.1% (Platelet-derived growth factor receptor alpha (PDGFRA, Homo sapiens, UniProt P16234, D842V); enzyme activity, inhibitor; 10 µM).
